Experimental data of several laboratories.
Every numbered part comes from another study and shows a few of its results, in no order. Changes are numbered by the printed parent chain.
Sequence of UniProt P11229 (whole entry, looked up): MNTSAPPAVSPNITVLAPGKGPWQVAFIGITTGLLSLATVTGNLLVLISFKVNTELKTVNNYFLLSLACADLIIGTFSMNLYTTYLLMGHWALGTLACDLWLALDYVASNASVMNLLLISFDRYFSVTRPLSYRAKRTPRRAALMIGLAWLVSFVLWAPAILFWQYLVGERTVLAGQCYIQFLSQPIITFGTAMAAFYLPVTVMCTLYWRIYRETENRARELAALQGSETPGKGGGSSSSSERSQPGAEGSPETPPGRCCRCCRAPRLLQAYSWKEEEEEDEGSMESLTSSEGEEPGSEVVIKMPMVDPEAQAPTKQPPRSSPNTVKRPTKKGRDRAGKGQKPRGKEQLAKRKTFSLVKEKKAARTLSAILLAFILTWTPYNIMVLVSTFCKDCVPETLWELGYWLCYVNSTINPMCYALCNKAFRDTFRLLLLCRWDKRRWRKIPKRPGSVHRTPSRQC
Sequence of UniProt Q8N4C8 (whole entry, looked up): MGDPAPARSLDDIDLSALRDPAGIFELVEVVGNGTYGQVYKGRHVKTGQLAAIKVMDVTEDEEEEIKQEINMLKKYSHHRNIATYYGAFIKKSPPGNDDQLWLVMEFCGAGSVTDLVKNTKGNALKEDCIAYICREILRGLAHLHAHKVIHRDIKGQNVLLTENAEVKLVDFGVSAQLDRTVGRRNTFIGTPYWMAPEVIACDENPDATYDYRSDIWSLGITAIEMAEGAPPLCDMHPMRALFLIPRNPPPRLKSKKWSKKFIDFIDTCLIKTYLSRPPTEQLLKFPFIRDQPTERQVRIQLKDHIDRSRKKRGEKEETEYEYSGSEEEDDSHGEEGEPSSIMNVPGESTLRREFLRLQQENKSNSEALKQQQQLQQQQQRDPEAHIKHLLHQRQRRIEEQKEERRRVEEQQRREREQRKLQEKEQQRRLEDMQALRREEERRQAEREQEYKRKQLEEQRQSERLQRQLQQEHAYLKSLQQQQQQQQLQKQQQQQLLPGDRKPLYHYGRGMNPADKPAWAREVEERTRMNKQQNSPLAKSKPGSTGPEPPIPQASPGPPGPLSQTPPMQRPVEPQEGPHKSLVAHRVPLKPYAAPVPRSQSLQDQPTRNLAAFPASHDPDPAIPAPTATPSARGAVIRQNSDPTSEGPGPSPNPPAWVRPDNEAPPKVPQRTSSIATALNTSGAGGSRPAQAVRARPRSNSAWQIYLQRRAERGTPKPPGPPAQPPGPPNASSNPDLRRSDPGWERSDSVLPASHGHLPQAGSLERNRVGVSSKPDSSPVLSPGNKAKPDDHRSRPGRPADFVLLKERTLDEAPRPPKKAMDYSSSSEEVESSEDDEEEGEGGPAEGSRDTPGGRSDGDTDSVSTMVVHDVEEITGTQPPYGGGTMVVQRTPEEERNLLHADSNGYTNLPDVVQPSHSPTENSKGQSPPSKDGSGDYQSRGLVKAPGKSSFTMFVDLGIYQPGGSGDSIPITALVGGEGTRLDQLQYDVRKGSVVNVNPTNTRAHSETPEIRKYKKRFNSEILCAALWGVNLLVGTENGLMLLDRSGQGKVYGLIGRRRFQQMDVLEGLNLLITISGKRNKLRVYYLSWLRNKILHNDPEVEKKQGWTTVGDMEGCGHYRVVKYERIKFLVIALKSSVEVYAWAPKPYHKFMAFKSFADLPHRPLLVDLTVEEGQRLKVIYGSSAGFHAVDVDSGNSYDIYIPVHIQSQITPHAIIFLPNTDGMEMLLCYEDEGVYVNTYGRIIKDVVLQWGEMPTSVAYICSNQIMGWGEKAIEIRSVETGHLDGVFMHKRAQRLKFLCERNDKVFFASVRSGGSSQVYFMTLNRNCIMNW
Sequence of UniProt P51956 (whole entry, looked up): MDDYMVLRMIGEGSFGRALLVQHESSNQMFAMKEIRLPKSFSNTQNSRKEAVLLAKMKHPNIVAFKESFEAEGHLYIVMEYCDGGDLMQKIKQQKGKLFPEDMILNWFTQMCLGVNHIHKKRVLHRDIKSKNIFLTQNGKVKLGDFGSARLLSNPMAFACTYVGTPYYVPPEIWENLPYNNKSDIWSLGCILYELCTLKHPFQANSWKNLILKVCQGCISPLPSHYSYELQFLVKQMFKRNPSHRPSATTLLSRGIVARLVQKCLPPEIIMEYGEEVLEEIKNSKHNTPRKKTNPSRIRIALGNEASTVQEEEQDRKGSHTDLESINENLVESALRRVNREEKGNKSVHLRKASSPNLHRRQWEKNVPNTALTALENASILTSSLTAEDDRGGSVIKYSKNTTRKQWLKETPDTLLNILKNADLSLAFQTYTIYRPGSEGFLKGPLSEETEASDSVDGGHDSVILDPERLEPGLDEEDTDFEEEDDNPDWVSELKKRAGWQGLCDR
Sequence of UniProt P06493 (whole entry, looked up): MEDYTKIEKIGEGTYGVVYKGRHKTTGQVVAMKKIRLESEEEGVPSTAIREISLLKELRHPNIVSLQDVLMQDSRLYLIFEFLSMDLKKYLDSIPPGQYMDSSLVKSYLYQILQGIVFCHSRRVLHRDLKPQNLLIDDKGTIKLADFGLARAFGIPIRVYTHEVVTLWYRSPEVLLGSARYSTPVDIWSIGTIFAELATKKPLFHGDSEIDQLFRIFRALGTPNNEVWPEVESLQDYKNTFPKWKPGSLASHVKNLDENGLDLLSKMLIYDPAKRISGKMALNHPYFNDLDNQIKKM
Sequence of UniProt Q96L34 (whole entry, looked up): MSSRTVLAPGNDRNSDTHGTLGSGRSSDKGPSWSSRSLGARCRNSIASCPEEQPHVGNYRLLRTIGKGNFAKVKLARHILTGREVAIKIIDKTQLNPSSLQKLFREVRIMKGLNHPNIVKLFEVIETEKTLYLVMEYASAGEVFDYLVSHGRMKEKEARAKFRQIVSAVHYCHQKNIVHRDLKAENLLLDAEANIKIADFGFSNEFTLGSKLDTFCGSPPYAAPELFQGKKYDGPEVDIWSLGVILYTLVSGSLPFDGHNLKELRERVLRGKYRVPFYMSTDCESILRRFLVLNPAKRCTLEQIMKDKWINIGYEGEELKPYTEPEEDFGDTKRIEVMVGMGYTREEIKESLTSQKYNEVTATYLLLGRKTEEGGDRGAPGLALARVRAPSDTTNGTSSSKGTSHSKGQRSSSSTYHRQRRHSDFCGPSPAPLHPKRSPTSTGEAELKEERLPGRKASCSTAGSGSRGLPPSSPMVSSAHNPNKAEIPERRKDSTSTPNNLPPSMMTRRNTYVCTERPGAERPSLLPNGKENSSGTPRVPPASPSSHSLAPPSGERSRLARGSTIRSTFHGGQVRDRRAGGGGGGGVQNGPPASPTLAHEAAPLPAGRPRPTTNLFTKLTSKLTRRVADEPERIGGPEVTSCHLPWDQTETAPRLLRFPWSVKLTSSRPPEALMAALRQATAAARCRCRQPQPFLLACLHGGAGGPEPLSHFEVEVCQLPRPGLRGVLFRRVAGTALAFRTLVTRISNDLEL
Sequence of UniProt O75676 (whole entry, looked up): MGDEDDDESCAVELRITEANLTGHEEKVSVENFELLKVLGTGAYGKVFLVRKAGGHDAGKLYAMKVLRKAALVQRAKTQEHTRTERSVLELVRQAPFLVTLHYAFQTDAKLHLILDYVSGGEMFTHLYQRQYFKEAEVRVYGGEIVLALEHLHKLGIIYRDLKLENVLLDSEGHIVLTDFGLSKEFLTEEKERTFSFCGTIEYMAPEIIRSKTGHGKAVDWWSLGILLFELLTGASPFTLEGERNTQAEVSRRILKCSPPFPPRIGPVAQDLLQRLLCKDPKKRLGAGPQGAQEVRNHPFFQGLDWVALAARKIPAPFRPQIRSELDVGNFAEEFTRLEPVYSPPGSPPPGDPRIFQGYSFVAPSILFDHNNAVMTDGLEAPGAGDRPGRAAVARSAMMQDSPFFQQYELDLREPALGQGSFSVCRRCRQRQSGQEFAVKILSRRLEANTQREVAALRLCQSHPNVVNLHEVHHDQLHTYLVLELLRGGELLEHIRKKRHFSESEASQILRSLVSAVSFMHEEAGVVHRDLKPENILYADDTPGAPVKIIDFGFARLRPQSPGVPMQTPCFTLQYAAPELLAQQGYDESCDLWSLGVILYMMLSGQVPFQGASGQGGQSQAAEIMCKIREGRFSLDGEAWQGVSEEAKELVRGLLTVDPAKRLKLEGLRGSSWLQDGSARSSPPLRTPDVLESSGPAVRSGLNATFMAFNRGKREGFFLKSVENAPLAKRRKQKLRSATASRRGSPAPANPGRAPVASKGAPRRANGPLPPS
Sequence of UniProt O75914 (whole entry, looked up): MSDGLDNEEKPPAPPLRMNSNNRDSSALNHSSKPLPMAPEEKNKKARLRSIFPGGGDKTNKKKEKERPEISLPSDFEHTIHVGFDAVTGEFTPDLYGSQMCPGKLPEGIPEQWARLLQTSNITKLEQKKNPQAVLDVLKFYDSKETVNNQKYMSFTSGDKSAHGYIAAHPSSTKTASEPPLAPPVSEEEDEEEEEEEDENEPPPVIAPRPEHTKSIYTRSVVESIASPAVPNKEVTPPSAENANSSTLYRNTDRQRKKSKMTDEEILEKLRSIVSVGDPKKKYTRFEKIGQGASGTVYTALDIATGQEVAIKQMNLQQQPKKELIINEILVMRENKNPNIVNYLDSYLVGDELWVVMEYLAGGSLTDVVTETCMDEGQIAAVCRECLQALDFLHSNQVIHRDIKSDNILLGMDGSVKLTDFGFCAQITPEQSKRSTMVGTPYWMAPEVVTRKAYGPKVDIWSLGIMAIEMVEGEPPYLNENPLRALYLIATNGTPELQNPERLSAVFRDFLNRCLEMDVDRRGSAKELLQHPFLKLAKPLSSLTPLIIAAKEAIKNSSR
Sequence of UniProt Q16539 (whole entry, looked up): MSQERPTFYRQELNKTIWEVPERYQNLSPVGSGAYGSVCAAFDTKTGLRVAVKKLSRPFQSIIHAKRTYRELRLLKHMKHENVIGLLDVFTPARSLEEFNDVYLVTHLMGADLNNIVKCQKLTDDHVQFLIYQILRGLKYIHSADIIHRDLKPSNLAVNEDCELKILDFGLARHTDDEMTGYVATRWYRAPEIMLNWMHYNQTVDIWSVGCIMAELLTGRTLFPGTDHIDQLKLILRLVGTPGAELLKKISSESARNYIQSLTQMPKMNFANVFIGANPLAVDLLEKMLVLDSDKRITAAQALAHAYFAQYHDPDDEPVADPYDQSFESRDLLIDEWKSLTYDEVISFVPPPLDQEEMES

Study 1 — observed: enzyme activity; mode: inhibitor; tested at: 0.5 µM; relative to: control
Compound: COc1ccc2c(c[n+](C)c3c4cc5c(cc4ccc23)OCO5)c1OC
target | remaining activity
MAP/microtubule affinity-regulating kinase 4 (MARK4, Homo sapiens, UniProt Q96L34) | 99.3%
G protein-coupled receptor kinase 4 (GRK4, Homo sapiens, UniProt P32298) | 94.8%
Serine/threonine-protein kinase PAK 3 (PAK3, Homo sapiens, UniProt O75914) | 96.6%
Ribosomal protein S6 kinase alpha-4 (RPS6KA4, Homo sapiens, UniProt O75676) | 88.3%
Mitogen-activated protein kinase 14 (MAPK14, Homo sapiens, UniProt Q16539) | 94.1%
Misshapen-like kinase 1 (MINK1, Homo sapiens, UniProt Q8N4C8) | 97.5%
Hepatocyte growth factor receptor (MET, Homo sapiens, UniProt P08581) | 94.7%
Cyclin-dependent kinase 1, with cyclin A (CDK1, Homo sapiens, UniProt P06493) | 89.7%
Serine/threonine-protein kinase MRCK beta (CDC42BPB, Homo sapiens, UniProt Q9Y5S2) | 107%
Vascular endothelial growth factor receptor 2 (KDR, Homo sapiens, UniProt P35968) | 104%
Serine/threonine-protein kinase Nek3 (NEK3, Homo sapiens, UniProt P51956) | 95.2%
Discoidin domain-containing receptor 2 (DDR2, Homo sapiens, UniProt Q16832) | 96.1%
Serine/threonine-protein kinase MARK2 (MARK2, Homo sapiens, UniProt Q7KZI7) | 95%

Study 2 — target: vanadate, free oxyanion; technique: microfluidic competitive inhibition; medium: in vitro, cell-free expressed; tested at: not given; direction: lower = stronger binding
Notes: derived from inhibition constants, unchanged parent 676 nM
Parent: PafA, mature enzyme, eGFP fusion (Elizabethkingia meningoseptica, UniProt Q9KJX5); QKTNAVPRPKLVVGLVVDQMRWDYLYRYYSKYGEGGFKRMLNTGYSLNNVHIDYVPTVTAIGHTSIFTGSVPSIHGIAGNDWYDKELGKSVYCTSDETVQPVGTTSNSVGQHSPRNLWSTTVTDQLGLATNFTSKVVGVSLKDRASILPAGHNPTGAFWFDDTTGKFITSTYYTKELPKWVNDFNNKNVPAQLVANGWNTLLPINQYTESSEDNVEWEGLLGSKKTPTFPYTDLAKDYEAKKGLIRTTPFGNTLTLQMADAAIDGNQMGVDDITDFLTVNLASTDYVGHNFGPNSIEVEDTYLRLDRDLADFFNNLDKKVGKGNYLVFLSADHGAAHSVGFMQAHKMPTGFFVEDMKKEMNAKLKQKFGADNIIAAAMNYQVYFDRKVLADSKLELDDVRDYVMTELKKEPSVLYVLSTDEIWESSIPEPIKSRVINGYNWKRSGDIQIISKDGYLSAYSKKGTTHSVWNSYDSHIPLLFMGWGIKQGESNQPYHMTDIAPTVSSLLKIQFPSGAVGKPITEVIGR
Variant | oxyanion analog dissociation constant
L15G | 6.29 µM
V189A | 0.698 µM
T465G | 0.535 µM
T121G | 0.75 µM
W82V | 5.63 µM
G151A | 0.402 µM
T284V | 1 µM
H333V | 1.16 µM

Study 3 — observed: binding; technique: radioligand binding; tested at: 10 µM
Structure (SMILES): CCC(=O)N[C@@H]1CC[C@H](C(=O)N(C)c2ccc(-c3nc4ccccc4o3)cc2)C1
target | inhibition
Delta-type opioid receptor (OPRD1, Homo sapiens, UniProt P41143) | -0.0188%
5-hydroxytryptamine receptor 2C (HTR2C, Homo sapiens, UniProt P28335) | 5.92%
Muscarinic acetylcholine receptor M1 (CHRM1, Homo sapiens, UniProt P11229) | -16.6%
5-hydroxytryptamine receptor 2A (HTR2A, Homo sapiens, UniProt P28223) | -9.08%

Study 4 — cell line: mouse MPNST tumor cells; technique: high-content nuclear imaging; refers to: cell number; tested at: 10 µM; time: 12 h; notes: mean of 2 replicates; relative to: plate mean; direction: higher = more cells
Structure (SMILES) | nuclei count [z-score]
CC1(N2CCC(n3c([C@@H]4CCCNC4)nc4ccccc43)CC2)CCCCCCC1 | -6.55
CC[N+]1(C)CCCC(OC(=O)C(O)(c2ccccc2)c2ccccc2)C1 (centres unmarked) | 0.284
C[C@]12C/C(=C/O)C(=O)C[C@@H]1CC[C@@H]1[C@@H]2CC[C@@]2(C)[C@H]1CC[C@]2(C)O | 1.84

Further values, each from its own experiment
Structure (SMILES) | host | medium | route | dose | endpoint | value
CC(=O)N[C@@H](Cc1c[nH]c2ccccc12)C(=O)N[C@@H](CCC(=O)C=[N+]=[N-])C(=O)OC(C)C | C57BL/6 CES1-/- mouse | blood | intravenous | 1 mg/kg equivalent | lymphocyte count | 2.61
